Results of several laboratories.
Compare with care: the assays were run in different laboratories. ± gives the spread as reported.
SCN9A: Sodium channel protein type 9 subunit alpha (SCN9A, Homo sapiens, UniProt Q15858)
Chain of UniProt Q15858 (whole entry, looked up): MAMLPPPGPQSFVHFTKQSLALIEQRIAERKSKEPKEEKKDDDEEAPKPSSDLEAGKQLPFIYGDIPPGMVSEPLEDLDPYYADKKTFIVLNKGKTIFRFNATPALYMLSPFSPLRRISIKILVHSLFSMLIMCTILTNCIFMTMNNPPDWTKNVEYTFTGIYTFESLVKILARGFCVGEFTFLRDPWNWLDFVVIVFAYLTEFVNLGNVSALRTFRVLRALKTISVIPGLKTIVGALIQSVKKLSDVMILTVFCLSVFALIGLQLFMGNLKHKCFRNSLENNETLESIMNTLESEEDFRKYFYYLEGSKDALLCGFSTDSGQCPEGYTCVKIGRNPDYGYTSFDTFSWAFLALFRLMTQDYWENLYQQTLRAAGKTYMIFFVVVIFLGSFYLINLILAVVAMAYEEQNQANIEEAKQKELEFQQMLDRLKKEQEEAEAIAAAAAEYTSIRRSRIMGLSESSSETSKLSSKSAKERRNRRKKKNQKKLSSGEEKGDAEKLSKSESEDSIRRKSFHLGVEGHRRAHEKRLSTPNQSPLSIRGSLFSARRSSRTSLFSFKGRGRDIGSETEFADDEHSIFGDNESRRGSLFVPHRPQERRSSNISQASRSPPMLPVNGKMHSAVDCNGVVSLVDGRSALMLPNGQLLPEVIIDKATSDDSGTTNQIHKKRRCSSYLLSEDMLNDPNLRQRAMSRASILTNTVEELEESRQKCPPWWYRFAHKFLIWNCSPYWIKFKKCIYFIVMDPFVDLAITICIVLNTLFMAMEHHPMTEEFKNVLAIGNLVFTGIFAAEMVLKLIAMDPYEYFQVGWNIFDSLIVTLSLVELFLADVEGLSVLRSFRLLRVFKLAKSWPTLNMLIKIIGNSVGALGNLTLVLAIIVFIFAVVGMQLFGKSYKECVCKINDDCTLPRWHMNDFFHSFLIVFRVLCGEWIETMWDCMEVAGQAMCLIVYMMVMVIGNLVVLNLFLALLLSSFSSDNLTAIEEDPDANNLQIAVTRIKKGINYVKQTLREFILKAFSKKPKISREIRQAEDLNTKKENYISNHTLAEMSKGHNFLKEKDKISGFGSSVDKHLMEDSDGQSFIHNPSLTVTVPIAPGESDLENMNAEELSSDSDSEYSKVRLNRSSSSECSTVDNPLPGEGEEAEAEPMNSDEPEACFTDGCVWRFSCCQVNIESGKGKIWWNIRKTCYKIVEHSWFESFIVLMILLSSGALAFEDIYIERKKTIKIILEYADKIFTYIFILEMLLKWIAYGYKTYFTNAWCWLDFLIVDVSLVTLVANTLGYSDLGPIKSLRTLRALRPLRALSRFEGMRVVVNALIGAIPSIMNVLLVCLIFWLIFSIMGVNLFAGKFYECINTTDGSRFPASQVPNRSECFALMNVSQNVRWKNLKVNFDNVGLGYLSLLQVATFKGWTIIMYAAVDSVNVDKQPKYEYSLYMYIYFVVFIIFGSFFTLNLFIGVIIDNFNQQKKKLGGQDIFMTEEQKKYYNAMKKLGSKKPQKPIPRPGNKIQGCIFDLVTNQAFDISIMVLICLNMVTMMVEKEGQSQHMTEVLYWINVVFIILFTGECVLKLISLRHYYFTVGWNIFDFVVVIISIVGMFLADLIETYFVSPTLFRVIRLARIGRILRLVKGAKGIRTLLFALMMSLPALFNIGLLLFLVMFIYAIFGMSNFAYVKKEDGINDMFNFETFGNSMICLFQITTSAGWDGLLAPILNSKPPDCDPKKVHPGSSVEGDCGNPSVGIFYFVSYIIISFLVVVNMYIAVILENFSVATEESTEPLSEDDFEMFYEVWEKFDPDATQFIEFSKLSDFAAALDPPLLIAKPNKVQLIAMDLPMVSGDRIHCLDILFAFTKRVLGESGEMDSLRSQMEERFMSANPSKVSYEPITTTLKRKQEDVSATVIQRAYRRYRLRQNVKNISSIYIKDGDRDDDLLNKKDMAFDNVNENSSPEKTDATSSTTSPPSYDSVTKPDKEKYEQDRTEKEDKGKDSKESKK
HBA1 with beta chain: Hemoglobin subunit alpha, with beta chain (HBA1, Homo sapiens, UniProt P69905)
Chain of UniProt P69905 (whole entry, looked up): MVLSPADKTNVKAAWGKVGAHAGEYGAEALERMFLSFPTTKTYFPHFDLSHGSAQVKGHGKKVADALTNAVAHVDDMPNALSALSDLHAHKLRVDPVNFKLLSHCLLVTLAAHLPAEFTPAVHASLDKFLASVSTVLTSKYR
MAL12: Alpha-glucosidase MAL12 (MAL12, Saccharomyces cerevisiae S288c, UniProt P53341)
Chain of UniProt P53341 (whole entry, looked up): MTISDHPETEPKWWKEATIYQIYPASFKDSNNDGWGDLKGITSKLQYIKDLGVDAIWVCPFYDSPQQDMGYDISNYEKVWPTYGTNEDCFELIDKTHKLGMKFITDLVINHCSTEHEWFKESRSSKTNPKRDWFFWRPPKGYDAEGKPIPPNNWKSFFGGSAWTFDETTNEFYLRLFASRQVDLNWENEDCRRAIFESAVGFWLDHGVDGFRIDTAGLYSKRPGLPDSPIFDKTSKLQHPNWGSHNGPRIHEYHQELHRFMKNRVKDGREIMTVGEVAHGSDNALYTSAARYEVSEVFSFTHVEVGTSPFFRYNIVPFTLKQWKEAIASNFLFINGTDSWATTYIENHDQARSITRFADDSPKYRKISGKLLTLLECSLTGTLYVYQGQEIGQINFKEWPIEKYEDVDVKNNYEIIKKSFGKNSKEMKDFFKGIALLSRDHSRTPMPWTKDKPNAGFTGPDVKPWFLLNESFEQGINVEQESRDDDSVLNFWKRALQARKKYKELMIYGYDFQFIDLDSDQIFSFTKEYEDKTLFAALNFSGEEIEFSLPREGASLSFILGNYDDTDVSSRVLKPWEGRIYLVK
Chain of UniProt Q08460 (whole entry, looked up): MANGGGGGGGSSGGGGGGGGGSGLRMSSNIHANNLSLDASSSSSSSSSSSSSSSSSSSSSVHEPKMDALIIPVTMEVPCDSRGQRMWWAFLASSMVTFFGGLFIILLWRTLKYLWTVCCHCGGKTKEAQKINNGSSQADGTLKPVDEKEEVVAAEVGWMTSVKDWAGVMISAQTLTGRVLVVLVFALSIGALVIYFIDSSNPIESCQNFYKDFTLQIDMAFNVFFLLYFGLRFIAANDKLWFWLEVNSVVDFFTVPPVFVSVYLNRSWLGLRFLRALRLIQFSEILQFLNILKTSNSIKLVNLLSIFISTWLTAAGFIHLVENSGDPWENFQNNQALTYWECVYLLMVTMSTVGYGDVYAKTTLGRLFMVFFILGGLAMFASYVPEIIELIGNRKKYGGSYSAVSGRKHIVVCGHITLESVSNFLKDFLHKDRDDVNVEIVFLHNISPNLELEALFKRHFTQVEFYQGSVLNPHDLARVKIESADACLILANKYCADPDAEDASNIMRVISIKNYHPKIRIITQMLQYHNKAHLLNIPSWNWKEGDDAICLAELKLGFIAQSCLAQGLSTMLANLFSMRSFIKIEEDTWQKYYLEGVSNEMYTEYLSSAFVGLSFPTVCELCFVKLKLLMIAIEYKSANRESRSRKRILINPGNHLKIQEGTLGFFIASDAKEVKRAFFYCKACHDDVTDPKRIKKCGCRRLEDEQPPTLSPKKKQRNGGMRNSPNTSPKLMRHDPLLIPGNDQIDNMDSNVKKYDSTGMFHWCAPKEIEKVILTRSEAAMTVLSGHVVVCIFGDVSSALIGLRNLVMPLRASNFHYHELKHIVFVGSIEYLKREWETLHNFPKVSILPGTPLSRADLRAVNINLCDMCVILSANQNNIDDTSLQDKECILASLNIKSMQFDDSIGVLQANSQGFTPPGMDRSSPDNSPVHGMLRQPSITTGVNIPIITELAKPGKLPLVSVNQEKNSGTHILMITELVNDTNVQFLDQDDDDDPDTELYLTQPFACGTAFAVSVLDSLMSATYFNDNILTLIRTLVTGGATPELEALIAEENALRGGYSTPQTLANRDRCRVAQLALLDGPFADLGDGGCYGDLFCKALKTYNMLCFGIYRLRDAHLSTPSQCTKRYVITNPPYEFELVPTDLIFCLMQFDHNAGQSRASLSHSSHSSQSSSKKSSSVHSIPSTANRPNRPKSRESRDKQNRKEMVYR
Chain of UniProt Q6STH5 (whole entry, looked up): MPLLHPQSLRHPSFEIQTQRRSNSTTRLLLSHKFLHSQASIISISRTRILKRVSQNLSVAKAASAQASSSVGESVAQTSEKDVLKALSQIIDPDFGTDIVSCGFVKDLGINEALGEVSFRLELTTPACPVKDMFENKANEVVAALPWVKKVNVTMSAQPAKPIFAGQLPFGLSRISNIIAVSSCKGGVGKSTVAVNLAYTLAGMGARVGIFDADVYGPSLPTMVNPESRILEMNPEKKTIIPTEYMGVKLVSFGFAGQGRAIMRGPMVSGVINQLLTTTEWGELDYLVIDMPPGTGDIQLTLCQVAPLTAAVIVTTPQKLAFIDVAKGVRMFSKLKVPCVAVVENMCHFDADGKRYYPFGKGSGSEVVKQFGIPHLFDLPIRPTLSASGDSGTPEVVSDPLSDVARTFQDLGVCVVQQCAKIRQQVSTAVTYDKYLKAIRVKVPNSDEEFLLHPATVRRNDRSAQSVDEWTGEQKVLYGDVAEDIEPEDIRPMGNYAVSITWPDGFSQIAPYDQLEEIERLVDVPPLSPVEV
Chain of UniProt P21397 (whole entry, looked up): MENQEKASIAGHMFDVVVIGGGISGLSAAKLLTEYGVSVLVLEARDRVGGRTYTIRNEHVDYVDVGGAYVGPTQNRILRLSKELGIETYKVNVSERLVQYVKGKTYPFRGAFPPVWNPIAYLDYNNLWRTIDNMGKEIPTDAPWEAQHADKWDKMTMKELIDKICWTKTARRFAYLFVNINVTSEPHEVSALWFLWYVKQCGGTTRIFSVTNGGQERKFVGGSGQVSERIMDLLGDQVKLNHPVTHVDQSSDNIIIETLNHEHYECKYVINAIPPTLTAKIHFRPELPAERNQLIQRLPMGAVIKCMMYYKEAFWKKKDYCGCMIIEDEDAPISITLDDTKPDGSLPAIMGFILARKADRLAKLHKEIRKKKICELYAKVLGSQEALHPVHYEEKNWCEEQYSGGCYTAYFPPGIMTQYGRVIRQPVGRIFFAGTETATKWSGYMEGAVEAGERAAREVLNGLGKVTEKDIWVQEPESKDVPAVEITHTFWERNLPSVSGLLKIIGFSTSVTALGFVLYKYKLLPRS

With `CC1=C(/C=C/C(C)=C/C=C/C(C)=C/C=C/C=C(C)/C=C/C=C(C)/C=C/C2=C(C)C[C@H](O)CC2(C)C)C(C)(C)C[C@H](O)C1` the Kd was 2.72 ± 0.03 µM (Beta-lactoglobulin (LGB, Bos taurus, UniProt P02754); surface plasmon resonance; 25 °C).
For `O=C(O)[C@@H]1CCC=N1`, the Kd was > 3300 µM (putA (Escherichia coli, UniProt P09546); stopped-flow; 20 °C, proline-reduced enzyme).
`[H]/N=C(\N/C(=N/[H])NCCCCCCNC(=N)NC(=N)Nc1ccc(Cl)cc1)Nc1ccc(Cl)cc1` has a liposome-bound oligomers of 0% (Alpha-synuclein, oligomers (SNCA, Homo sapiens, UniProt P37840); oligomer-vesicle binding, FIDA; 5 µM, with: 150 nM oligomers, 50 µM DOPG liposomes).
`Cc1nc2ccccc2nc1N/N=C/c1ccc(O)cc1` has an Emax of 141% (GRM4 (Homo sapiens, UniProt Q14833); positive allosteric modulator; CHO cells with Gqi5; with: glutamate EC20; reference: glutamate maximum).
For `COCCN(CCOC)C(C)C(=O)Nc1c(C)csc1C(=O)OC` (centres unmarked), “capacity factor k′” read 14 (SCN9A; cell membrane chromatography; higher = stronger binding).
The peak modification of `COCc1ccc(C=O)o1` is reported as 21% (HBA1 with beta chain; measured: haemoglobin A adduct; human normal whole blood; 2 mM, 24 h, hematocrit 30%).
`Clc1cccc(Nc2nnc(-c3ccccc3)c3ccccc23)c1`: IC50 “inactive” (Dual specificity calcium/calmodulin-dependent 3',5'-cyclic nucleotide phosphodiesterase 1B (Homo sapiens, UniProt Q01064); cGMP hydrolysis, inhibitor, fluorescence polarization; recombinant enzyme; up to 100 µM, 30 min preincubation, 30 °C, with: TAMRA-cGMP 25 nM).
`COc1c(O)ccc2c(=O)cc(-c3ccccc3)oc12` gave an inhibition of 42.7% (MAL12; enzyme activity, inhibitor, absorbance; 50 µM).
`C#CCN(C)Cc1ccccc1` gave a remaining activity of 1.9% (MAOA (Homo sapiens, UniProt P21397); enzyme activity, inhibitor, dialysis reversibility; 4 × IC50, 24 h dialysis; reference: no inhibitor).
Under “patients with IgE binding”, `KACESRCTKLEYDPR` is recorded as 50% (human IgE; peptide microarray; peptide, peanut/walnut-allergic patient sera; concentration not given, 16 h, 4 °C).
With `CC[N+](CC)(CC)CC` the charge movement was 0.23 ± 0.02 e (Kcnma1 (Mus musculus, UniProt Q08460); K+ current, blocker, outside-out patch, oocytes; pH 8.5, state-independent block fit, with: Ca2+ 300 µM).
Under “decay time constant τ2”, `Nc1ncnc2c1ncn2[C@@H]1O[C@H](COP(=O)(O)OP(=O)(O)OP(=O)(O)O)[C@@H](O)[C@H]1O` is recorded as 2.1 ± 0.2 s (P2X purinoceptor 7 (P2rx7, Rattus norvegicus, UniProt Q64663); ion current, whole-cell patch clamp; HEK293, transfected; with: after agonist washout, Ca2+ medium).
For `O=C(O)c1cccc2cccnc12`, “UV signal reduction” read 70.4 ± 2.7% (PY04617 (Plasmodium yoelii, UniProt Q7RFT5); ultrafiltration HPLC-UV; 0.1 mM, pH 7.25, 4 °C, 6.5% DMSO, with: methionine competitor).
Under “agonist and antagonist activity”, `CC(=O)N[C@@H](Cc1cccnc1)C(=O)N[C@H](Cc1ccccc1)C(=O)N[C@@H](CCCNC(=N)N)C(=O)N[C@@H](Cc1ccc2ccccc2c1)C(N)=O` is recorded as “inactive” (Melanocortin receptor 3 (Mus musculus, UniProt P33033); receptor activity, agonist, cell-based; up to 100 µM, Schild antagonism analysis).
The inhibition of `COc1cc2oc(-c3ccccc3)cc(=O)c2c(OC)c1O` is reported as 7.09% (MAL12; enzyme activity, inhibitor, absorbance; 25 µM).
For `COC(=O)c1scc(C)c1NC(=O)C(C)N1CC(C)CC(C)C1` (centres unmarked), “capacity factor k′” read 77 (SCN9A; cell membrane chromatography; higher = stronger binding).
Under “channel opening frequency”, `COc1ccc(OCC2c3cc(OC)c(OC)cc3CCN2C(=O)c2cccc(Cl)c2)cc1` (centres unmarked) is recorded as 303 ± 57 Hz (Glutamate receptor ionotropic, NMDA 2D, with NR1 (Rattus norvegicus, UniProt Q62645); outside-out patch clamp; 10 µM, with: GluN1 co-expressed).
`CCCCCCCCCN[C@H]1CNC1=O`: IC50 “inactive” (NAAA (Homo sapiens, UniProt Q02083); enzyme activity, inhibitor, fluorogenic PAMCA hydrolysis; pH 4.5, with: 5 µM PAMCA).
The MFI increase of `YVQKNGGKL` is reported as 191% (H-2 class I histocompatibility antigen, D-B alpha chain, 17 (H2-D1, Mus musculus, UniProt P01899); H2-D binding, flow cytometry; peptide, RMA-S; 10 µg per 100 µL, 3 h).
`CC(=O)N[C@@H]1[C@@H](O)[C@H](O[C@@H]2O[C@H](CO)[C@@H](O[C@@H]3O[C@H](CO[C@H]4O[C@H](CO[C@H]5O[C@H](CO)[C@@H](O)[C@H](O)[C@@H]5O[C@H]5O[C@H](CO)[C@@H](O)[C@H](O)[C@@H]5O)[C@@H](O)[C@H](O[C@H]5O[C@H](CO)[C@@H](O)[C@H](O)[C@@H]5O[C@H]5O[C@H](CO)[C@@H](O)[C@H](O)[C@@H]5O)[C@@H]4O)[C@@H](O)[C@H](O[C@H]4O[C@H](CO)[C@@H](O)[C@H](O)[C@@H]4O[C@H]4O[C@H](CO)[C@@H](O)[C@H](O)[C@@H]4O[C@H]4O[C@H](CO)[C@@H](O)[C@H](O)[C@@H]4O)[C@@H]3O)[C@H](O)[C@H]2NC(C)=O)[C@@H](CO)O[C@H]1NC(=O)C[C@H](N)C(=O)O` has a fluorescence of 14800 RFU (NT1 (Nicotiana tabacum, UniProt Q94EW1); glycan binding, glycan array; with: Alexa 488-labelled lectin 150 µg/mL).
For `CC1=C(C(=O)OCc2ccccc2)C(c2ccc(-c3ccccc3)cc2)NC(=O)N1CCCCCC(=O)O` (centres unmarked), “fold change in activity” read 1.5 fold (Heat shock 70 kDa protein 1A, with Hdj2 (HSPA1A, Homo sapiens, UniProt P0DMV8); ATPase activity, inhibitor; 100 µM, Hsp40-stimulated activity, with: Hdj2 Hsp70:Hsp40 1:0.5; reference: DMSO, negative means inhibition).
`O=c1c(O)c(-c2ccc(O)c(O)c2)oc2cc(O)cc(O)c12` gave a V1/2 shift of -10.1 ± 3.5 mV (Kcnh1 (Mus musculus, UniProt Q60603); inside-out patch clamp; Xenopus oocytes; 10 µM).
The bound fraction of `H-MIETITIYKYKKAADHFSMSMGSGSGSYPYDVPDYA-NH2 (C-amide)` is reported as ~80% (BCL2L1 (Homo sapiens, UniProt Q07817); binding, radioligand binding; 1 h, room temperature, immobilized Bcl-xL 100 pmol).
For `RCTKLEYDPRCVYDP`, “patients with IgE binding” read 92% (human IgE; peptide microarray; peptide, peanut-allergic patient sera; concentration not given, 16 h, 4 °C).
`COc1ccc(-c2cc(=O)c3ccc(O)cc3o2)cc1` has an inhibition of < 1% (MAL12; enzyme activity, inhibitor; 10 µM, with: p-nitrophenyl α-D-glucopyranoside).
For `C=CC(=O)Nc1ccccc1Nc1nc(Nc2ccc(N3CCN(C)CC3)cc2)ncc1Cl`, the labelling was > 50% (MKNK2 (Homo sapiens, UniProt Q9HBH9); probe binding, inhibitor, chemoproteomic competition; NCI-H23 KRAS G12C; 100 nM, 2 h, with: 2 µM desthiobiotin probe).
For `CC[C@]1(O)C[C@H]2CN(CCc3c([nH]c4ccccc34)[C@@](C(=O)OC)(c3cc4c(cc3OC)N(C=O)[C@H]3[C@@](O)(C(=O)OC)[C@H](OC(C)=O)[C@]5(CC)C=CCN6CC[C@]43[C@@H]65)C2)C1`, the inhibition was 95.1% (SLC22A5 (Homo sapiens, UniProt O76082); transporter uptake, inhibitor; 500 µM).
`COc1ccc(OCc2ccccn2)c(C=O)c1` — result for “association rate constant kon”: 1.39 M⁻¹ s⁻¹ (HBA1 with beta chain; binding, cation-exchange HPLC-UV/Vis; 37 °C).
`CC[C@H](C)[C@H](NC(=O)[C@@H]1CCCN1C(=O)[C@@H]1CCCN1C(=O)[C@@H]1CCCN1C(=O)[C@@H](NC(=O)[C@H](CC(N)=O)NC(=O)[C@@H](N)Cc1ccccc1)[C@@H](C)CC)C(=O)N[C@@H](Cc1ccc(O)cc1)C(=O)N[C@H](C(=O)N[C@@H](CO)C(=O)N[C@@H](CCCNC(=N)N)C(=O)N[C@@H](C)C(=O)O)[C@@H](C)O` has a TΔS of -0.4 ± 0.62 kcal/mol (WW domain-containing oxidoreductase, WW2 domain Y85W (WWOX, Homo sapiens, UniProt Q9NZC7, Y85W); binding, ITC; pH 7.0, 25 °C).
`CC(C)OCc1ccc(C=O)o1` has a P50 change of 38.4 ± 10.4% (Hemoglobin subunit alpha, with sickle beta chain (HBA1, Homo sapiens, UniProt P69905); oxygen affinity; sickle red cell lysate; 2 mM; reference: untreated).
For `COc1c(O)cc(O)c2c(=O)cc(-c3ccc(O)cc3)oc12`, the inhibition was > 99% (MAL12; enzyme activity, inhibitor; 250 µM).
`[S]12[Fe]3[S]4[Fe]1[S]1[Fe]2[S]3[Fe]41` gave an iron content of 3.6 ± 1.2 mol/mol monomer (Fe-S cluster assembly factor HCF101, chloroplastic (HCF101, Arabidopsis thaliana, UniProt Q6STH5); pH 8.0, 23 °C, reconstituted, with: ferric ammonium citrate, lithium sulfide).

Excerpt of the above:
With `CC[N+](CC)(CC)CC` the charge movement was 0.23 ± 0.02 e (Kcnma1 (Mus musculus, UniProt Q08460); K+ current, blocker, outside-out patch, oocytes; pH 8.5, state-independent block fit, with: Ca2+ 300 µM).
Under “patients with IgE binding”, `KACESRCTKLEYDPR` is recorded as 50% (human IgE; peptide microarray; peptide, peanut/walnut-allergic patient sera; concentration not given, 16 h, 4 °C).
`COc1ccc(OCc2ccccn2)c(C=O)c1` — result for “association rate constant kon”: 1.39 M⁻¹ s⁻¹ (HBA1 with beta chain; binding, cation-exchange HPLC-UV/Vis; 37 °C).
